Published values pooled from the literature.
Numbered parts are unrelated; each lists some results of a single study. Changes are numbered by the printed parent chain.

Study 1 — technique: universal PBM; molecule type: double-stranded DNA, one strand shown; matrix: in vitro; tested at: 600 nM; direction: higher = stronger binding; endpoint: E-score
Target: Sal-like protein 4, full length isoform A (SALL4, Homo sapiens, UniProt Q9UJQ4, residues 1-1053)
Sequence of UniProt Q9UJQ4 (whole entry, looked up): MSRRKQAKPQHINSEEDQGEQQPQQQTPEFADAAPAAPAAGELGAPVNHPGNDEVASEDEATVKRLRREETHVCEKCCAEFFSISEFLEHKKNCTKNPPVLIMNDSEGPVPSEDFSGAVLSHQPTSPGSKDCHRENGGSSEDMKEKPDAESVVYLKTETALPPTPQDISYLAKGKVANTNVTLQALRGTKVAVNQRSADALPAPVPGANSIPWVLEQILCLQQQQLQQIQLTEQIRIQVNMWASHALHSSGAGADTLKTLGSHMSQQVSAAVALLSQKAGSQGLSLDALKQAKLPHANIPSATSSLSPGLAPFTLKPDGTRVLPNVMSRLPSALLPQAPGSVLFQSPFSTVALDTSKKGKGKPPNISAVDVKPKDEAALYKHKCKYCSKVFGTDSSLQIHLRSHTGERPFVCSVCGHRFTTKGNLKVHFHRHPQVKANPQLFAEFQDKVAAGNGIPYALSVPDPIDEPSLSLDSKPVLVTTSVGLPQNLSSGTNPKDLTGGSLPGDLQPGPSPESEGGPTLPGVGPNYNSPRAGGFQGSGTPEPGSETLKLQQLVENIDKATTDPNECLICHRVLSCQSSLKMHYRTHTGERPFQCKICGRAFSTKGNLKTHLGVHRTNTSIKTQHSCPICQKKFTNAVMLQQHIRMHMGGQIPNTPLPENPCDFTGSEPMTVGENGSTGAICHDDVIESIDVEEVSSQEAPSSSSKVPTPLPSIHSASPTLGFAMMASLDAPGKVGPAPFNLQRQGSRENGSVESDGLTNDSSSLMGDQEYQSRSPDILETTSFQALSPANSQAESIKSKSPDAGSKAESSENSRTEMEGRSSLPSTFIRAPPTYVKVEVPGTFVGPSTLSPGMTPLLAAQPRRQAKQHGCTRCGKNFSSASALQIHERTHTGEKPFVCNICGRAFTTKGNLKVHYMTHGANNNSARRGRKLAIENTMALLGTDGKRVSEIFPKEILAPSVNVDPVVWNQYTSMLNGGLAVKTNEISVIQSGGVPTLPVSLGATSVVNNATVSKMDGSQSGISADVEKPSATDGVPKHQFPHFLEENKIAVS
Setting: 8-mer, flanks averaged, mean of replicates
AGCTCCCT: -0.148
GCTTTCAC: -0.0687
ACAAGGAT: 0.23
CAAGAGGG: -0.0369
TCCCCAGA: -0.16
GTTCCTCA: -0.0481
ACCTTGTC: -0.153
GCGTTTCA: -0.00913
AGACTAAT: 0.184
GCGTCTCC: -0.261
CCGATTGC: -0.0592
AAAATTAA: 0.366
ATTTAGGG: 0.0166
CTGCGGTA: 0.0224
AACTCCCT: -0.0967
AATAAGAC: 0.271
TATTCAAA: 0.327
CCATGCGA: -0.0537
GTAACTTA: 0.176
GCGCATCA: 0.0337

Study 2 — technique: RNA Bind-n-Seq; molecule type: RNA; matrix: in vitro; tested at: 365 nM; reference: no-protein control; direction: higher = stronger binding; endpoint: RBNS enrichment (R)
Target: RNA binding protein fox-1 homolog 2, RRM domain, GST-SBP tag (RBFOX2, Homo sapiens, UniProt O43251-10, residues 100-194)
Setting: natural RNA segment, single round, ends assumed
Shared flanks, not repeated: GGGAGUUCUACAGUCCGACGAUC … UGGAAUUCUCGGGUGCCAA
Residues (chain): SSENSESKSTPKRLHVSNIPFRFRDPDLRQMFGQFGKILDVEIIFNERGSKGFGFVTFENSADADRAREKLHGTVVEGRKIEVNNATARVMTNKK
GAAAGAAGGUUGCCGCCUCGACUGCUUACCUUUGGAGAAAACCUGGAGUGGACUUCAGUGGGCAUUCGUGCUAAGUCACCCUCAUCGGUAAAAUACUGCAAAGAACUAAC: 0.251
CCACUGCUCCCACCAGCGUACGGAUUAAGUUCAUCAGGCUUCCAUCGGCUGGAGCAUGGGACCAUAGCCCCUGCCCAGGAGCCGUACCCUCGGACCACAGUGGCUCUGUA: 0.27
CUUGUUUGUUUUUUGGCAUGAAUUGUCAUCUUUGGUGUUUUUUUAACCCCCAGCCCCUCAAAAAAAUAAGGCCUCCAGGUAUCAAGAUCUCAUAUUAGGAUUUUCUGUCC: 0.484
UAAUAUAUUAUCCUUCCUUGGUUCUAGAAGAAUAGAUAAAUAUAUUUUUUUAGGCUAUAGAAUGAUAUUACAGGUCCCAUGUUGGCUGGAUGGUUGCGUGAGUUUUCGUG: 0.784
AGCAAAGUCUUCUGUUGGCCUUUGGAACAGGAGAGUCCCCGGAAUCUAGGACCCUAGUCUUUGUACUUGAUGCCUUGUUUCCCCCCUUUUCUUCUUUAAAAUUGGGGACC: 0.275
UUCAUUUGAACGAAGAACUUCAAAAAGCACAGGACUAGAUGAUCUCUGUUCCUUUUGGCUCUAAUAUGCUACAACUGUAGGCCAAUUAUCACUUUACCAAUUAAGAGUUA: 0.736
UGUGUCCUGGGGGAGAGAUGGCCACCUCCGUGGGCUGCGAAGAGCCACCCCUUCCUCUUCCGAUUCUCCUAGCAGCCACUCAGAGAUAAUUUAAUUCCAGAUUGGAAACG: 0.641
CCUUUUCUUUGGGCUUGACACCUGUCUUGAAUAAGAGUGAUUAGAGCUGCAUAAUGUCCCUCUCUUGGCUAUUGACCAUGUGGUUCACGUACAAAACUCUGUAUAAGUUG: 1.23
GCUUGUGUUGAGUAAAAAGGAGAUGCCCCAAUAUUCAAAGCUGCUAAAUGUUCUCUUUGCCAUAAAGACUCCGUGUUAACUGUGUAAACACUUGGGAUUUUUCUCCUAUG: 0.453
AUUUGAGACAAAUAGUCGGAUUAGAAAUAAAGCAUCUCAUUUUGAGUAGAGAGCAAGGGAAGUGGUUCUUAGAUGGUGAUCUGGGAUUAGGCCCUCAAGACCCUUUUGGG: 1.11
UGUUUUGACUUGAAUAAAGUACUACAUCAGUGUGGAAAAAAAUUCUGAUACAUUAGCAGCUAUGUAAAUGACCUAAUUGAUAGCAGGUGUAAUAAGACUAUCGUCUUCCU: 0.317
AGAAAGAACAUUUGUGAAUUGCAGUUGUCAAAAAAAAAAAAUAGCCUAGCUGGCCUUAUUUGUGAAGCAUAAUUGCUUUUAGCAUAUGGAAGUAUUUUUUCACAUUUUCU: 0.361

Study 3 — target: CCNA1, cyclin fold, Cln2 fusion (human); technique: yeast growth competition, sequencing; matrix: yeast; setting: weak parent motif; reference: not given; direction: higher = stronger binding; endpoint: normalised enrichment score
Parent: RBL1 docking peptide (human); GSAKRRLFGEDPP; partner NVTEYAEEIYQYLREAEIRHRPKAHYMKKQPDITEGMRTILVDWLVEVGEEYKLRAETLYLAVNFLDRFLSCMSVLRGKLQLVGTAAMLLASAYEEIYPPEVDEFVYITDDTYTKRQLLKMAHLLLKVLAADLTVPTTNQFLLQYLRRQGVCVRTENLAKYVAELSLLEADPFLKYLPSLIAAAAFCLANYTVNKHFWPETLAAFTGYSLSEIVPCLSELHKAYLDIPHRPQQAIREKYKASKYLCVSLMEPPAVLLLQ
R6L: 0.162
G1Y: 0.906
R5C: 0.00599
S2Q: 0.595
L7D: 0.161
R5A L7A: -0.00234
D11P: 0.17
G9A: 0.867
R6S: 0.613
E10T: 0.326
R5K F8L: -0.0331
P13I: 0.698
G9E: 0.401
K4T: 0.528
P13D: 0.46
G1W: 0.486
P13H: 0.977
L7A: 0.23
E10I: 0.424
P12I: 0.484
A3K: 0.488
K4A: 0.636
R6D: -0.0447
A3E: 0.306
S2T: 0.747

Study 4 — technique: protein binding microarray; molecule type: double-stranded DNA, one strand shown; matrix: in vitro; tested at: not given; reference: not given; direction: higher = stronger binding; endpoint: E-score
Target: Histone acetyltransferase KAT6A, winged helix 1, GST fusion (KAT6A, Homo sapiens, UniProt Q92794, residues 1-85)
Setting: 8-mer, flanks averaged, mean of 2 arrays, mostly near background
Target sequence (chain): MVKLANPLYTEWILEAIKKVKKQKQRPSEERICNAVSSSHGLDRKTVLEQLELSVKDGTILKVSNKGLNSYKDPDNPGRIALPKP
CCTGGTAA: -0.147
AGTAACGG: 0.154
GTCAAGCA: -0.0902
GCGTATAC: 0.239
CATGTAGG: -0.14
ACACGTAC: -0.0333
GATGTTGA: -0.107
CAGTCAGA: -0.205
CAAAAAGA: -0.209
AGCTGTAG: -0.185
CGTTGTCC: -0.0301
TCCCATCA: -0.219
CGGACGTC: 0.21
CAGGGTGG: -0.133
AGTTTTAA: -0.0697
CATTACAC: -0.0356
AAATACAT: -0.138
CGTCATTA: 0.074
CTTAGCTC: -0.0783
AGAATTCT: 0.0394
AAACCATG: -0.0605
CAGTCCTC: -0.277

Study 5 — technique: RNA Bind-n-Seq; molecule type: RNA; matrix: in vitro; tested at: not given; reference: input RNA pool; direction: higher = stronger binding; endpoint: bound/input enrichment
Target: RING finger protein unkempt homolog, zinc fingers 1-6, GST-SBP tag (UNK, Homo sapiens, UniProt Q9C0B0, residues 30-357)
Sequence of UniProt Q9C0B0 (30-357, looked up): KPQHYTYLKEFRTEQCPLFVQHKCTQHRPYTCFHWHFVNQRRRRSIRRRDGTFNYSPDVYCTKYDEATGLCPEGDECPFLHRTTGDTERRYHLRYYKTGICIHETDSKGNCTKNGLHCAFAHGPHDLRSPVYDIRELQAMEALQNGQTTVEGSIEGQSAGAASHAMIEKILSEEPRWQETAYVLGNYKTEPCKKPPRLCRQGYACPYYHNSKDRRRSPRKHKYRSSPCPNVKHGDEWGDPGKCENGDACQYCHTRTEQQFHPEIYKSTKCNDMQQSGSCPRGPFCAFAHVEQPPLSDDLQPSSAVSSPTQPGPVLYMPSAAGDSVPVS
Setting: RNA with constant flanks, human and mouse sites, ends assumed
Shared flanks, not repeated: GGGAGUUCUACAGUCCGACGAUC … CAACAGAGGAUUGAGCAUCA
AAAAGAAAAGCCUCUAAAUAGGGUUUCAUGUGGUGCAGGGUUAUAAACCUGCUUUAUCUUUUAGGAUUAUUCCUAAAUGCAUCUUCUUUAUAAACUUGACUUGCUAUAUCAGCAAGAUAA: 0.58 ratio
CUGGUUUCCUGGAUUGGAUUGAUCAGUUUGAUUUGUUCUGUAUUUGGCCAAACAGAUAAAAAUAGAUGUUUAAAAGCAAAUGCCAAAUCUUGCGGAGAAUGUAUACAAGCAGGGCCAAAU: 0.342 ratio
GACUCCAUCUUGAGUUGGGGGACUAUUUGGCUUGGUGGGCAAGGGAGCUGCUCGUUGCCAAGGGGCCUCGCUCCACCCCCCACCACCCCACCCCCAGACAUGCUGCUGCUCAAGAAACAG: 0.33 ratio
UCCACCAAGAGCCUCUUCCUUGGCCAGAAGCUGAACCUUAUUCACAGUGAAAUCAGUAAUUUAGCCGGCUUUGAGGUGGAGGCCAUAAUCAAUCCUACCAAUGCUGACAUUGACCUUAAA: 0.128 ratio
GGGGAGCCGCCCGGUGCCCGUGUGUCCGUUCCUCCACUCAUCUGUUUCUCCGGUUCUCCCUGUGCCCAUCCACCGGUUGACCGCCCAUCUGCCUUUAUCAGAGGGACUGUCCCCGUCGAC: 0.121 ratio
CUAUCAAAGGUUCCGGCUUGAAGGGAACUGUCACUACCCCCUCUAGGAAGUUAUUUUAUGUAGCAUGUUUGCAUAUACGCAUUGUGUGGCAUGUGCAUAGAGGCUUGUUUUACACCUAUC: 0.762 ratio
AGGCAUACUCGUCCUCAGGUGUCAUCUGUACGGUUGAUGGAGAGGUCGAUUCACAGCGCAAGAUACAUUUUUGUAGAAAACCUGUAUAGAAGUGGGAAGAUGCCAGAAGUGGACUAUGUA: 1.04 ratio
AAGUAGCAUAUGACUGGAAACUAUAUUCAGUGCACUUUCUCCAAAAGACUACCCAGAAAAAUAGACUUAUUUUCAAAUACCAGUUAUCAAGAUAUAUUAAAUAGCUGUAUUGUUUAGAAU: 13.7 ratio
GGCUUGGAGUUUGGCAAGUUACCAUUUGGUGCCUGCGAAGAUCCUAUUAGUGAACUCCAUUUAGCUACUACAUGGCCUCAUCUGACCGAAGGGAUCAUUGUGGAUAAUGAUGUUUAUUCU: 0.619 ratio
ACUCAGUACAUCAUGUGCUCCUAAGAAUGAUAACACAGAUUAUUAAUUAUACUAGUUUACUGACAAAGUCACAAAGACAAACAGUAAAAUACAGGCUACCUUUAACCCCAUGAUUGGUGA: 0.537 ratio
GUCAGCAUUUUAUGUAUUCCAUUUGCAAAAAACAUUUAUGGACUCAUAGCUCCGAACUUUGGAGUUGGUUUUGCAAUUGGAAUGGUGGAUUCGUCAAUGAUGCCUAUCAUGGGCUACCUC: 0.242 ratio

A few entries again (study 1):
GCGTCTCC: -0.261
CTGCGGTA: 0.0224
CAAGAGGG: -0.0369
GCGTTTCA: -0.00913
ATTTAGGG: 0.0166
